Measurements pooled from the literature.
Parts stem from different laboratories: compare values within a part only. Positions count from the first letter of the parent shown.

Series 1
Target: Centromere-binding protein 1, full length, N-terminal tag (CBF1, Saccharomyces cerevisiae, UniProt P17106, residues 1-351)
Sequence of UniProt P17106 (whole entry, looked up): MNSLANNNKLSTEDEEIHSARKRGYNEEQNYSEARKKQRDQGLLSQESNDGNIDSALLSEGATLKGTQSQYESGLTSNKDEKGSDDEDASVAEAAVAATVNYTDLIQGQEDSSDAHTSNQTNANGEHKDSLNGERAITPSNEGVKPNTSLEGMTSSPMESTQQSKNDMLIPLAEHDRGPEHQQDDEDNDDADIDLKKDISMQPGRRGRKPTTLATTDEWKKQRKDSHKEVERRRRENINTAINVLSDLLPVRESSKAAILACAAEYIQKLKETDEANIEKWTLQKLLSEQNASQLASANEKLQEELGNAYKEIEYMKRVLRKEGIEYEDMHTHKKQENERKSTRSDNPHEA
Method: protein-binding microarray
Form: double-stranded DNA, one strand shown
Sample: in vitro
Tested at: 0.8 µM
Setting: whole 60-bp probe, no competitor
Direction: higher = stronger binding
Constant ends, left off below: … GTCTTGATTCGCTTGACGCTGCTG
| Sequence | fluorescence intensity [a.u.] |
| --- | --- |
| TGTACGAAGCTATCCCACCAGATTATAGTAGTTAGG | 522 |
| CTAAGCTAGATTAAAAACGTGCGTATTACTCATTTC | 591 |
| GAAGCGAAGAAATGCGACGTCATTTACTCATTATAG | 511 |
| CTACACACGCACACGCGCACGCATCCACATTCATTC | 634 |
| CCTAACTACTATATCTGCGTGTCATAGCTTCGTACA | 536 |
| CTAGTAAATTGACCCAGCGTGACGACAGTAGACTTC | 658 |
| CTATCGTTTGGAAGACACGTTAGGTTTAGTATCTTC | 556 |
| CTACCACACCTTCCCCACGCAGCAAGCGATAACTTC | 539 |

Series 2
Target: Prothrombin, mature alpha-thrombin (F2, Homo sapiens, UniProt P00734)
Method: aptamer microarray, sandwich
Form: DNA with 2'F-ANA
Sample: in vitro
Tested at: 200 nM
Setting: whole 15-mer aptamer, many near background
With: Cy3 exosite-II aptamer, 400 nM
Direction: higher = stronger binding
Sequence: GGTTGGTGTGGTTGG
| Modification | mean fluorescence intensity |
| --- | --- |
| 2'F-ANA at 3 4 8 9 12 15 | 1050 a.u. |
| 2'F-ANA at 1 2 4 5 9 10 14 | 48.4 a.u. |
| 2'F-ANA at 4 5 6 8 10 12 13 | 59.9 a.u. |
| 2'F-ANA at 3 4 5 6 7 9 10 11 12 | 60.2 a.u. |
| 2'F-ANA at 1 2 4 5 6 7 10 11 12 13 14 | 157 a.u. |
| 2'F-ANA at 1 2 4 5 6 7 10 11 12 14 | 46.9 a.u. |
| 2'F-ANA at 3 5 11 12 13 14 15 | 60.5 a.u. |
| 2'F-ANA at 2 5 6 9 15 | 69.4 a.u. |

Series 3
Target: CCNE1, cyclin fold, Cln2 fusion (human)
Method: yeast growth competition, sequencing
Sample: yeast
Setting: strong parent motif
Relative to: not given
Direction: higher = stronger binding
Starting sequence: viral docking peptide; KGVKRKLFAEDSS; partner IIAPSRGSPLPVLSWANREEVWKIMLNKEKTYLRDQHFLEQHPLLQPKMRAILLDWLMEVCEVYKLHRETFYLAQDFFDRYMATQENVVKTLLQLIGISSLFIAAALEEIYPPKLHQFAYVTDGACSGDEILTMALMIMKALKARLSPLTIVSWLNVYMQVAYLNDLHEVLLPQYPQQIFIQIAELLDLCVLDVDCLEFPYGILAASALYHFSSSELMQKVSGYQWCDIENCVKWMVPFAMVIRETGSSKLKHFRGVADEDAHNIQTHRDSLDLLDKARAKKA
| Substitution | normalised enrichment score |
| --- | --- |
| KGVKRKVFAEDSS [L7V] | 0.725 |
| KGVKRKLFAEDAS [S12A] | 7.62 |
| KGVKDKLFAEDSS [R5D] | -0.145 |
| KGVFRKLFAEDSS [K4F] | 3.54 |
| KGVKRSLFAEDSS [K6S] | 4.09 |
| KGVKRKLFAWDSS [E10W] | 5.29 |
| KGVKRYLFAEDSS [K6Y] | 3.09 |
| KYVKRKLFAEDSS [G2Y] | 6.98 |
| KGVKRKLFAELSS [D11L] | 6.42 |

Series 4
Target: UBE2D3 UBC core domain (UniProt P61077)
Method: yeast two-hybrid
Sample: yeast
Setting: mostly zero background
Relative to: not given
Direction: higher = stronger interaction
B1: TRIM3 RING domain (UniProt O75382); chain VQPMDKQFLVCSICLDRYQCPKVLPCLHTFCERCLQNYIPAQSLTLSCPVCRQTSILPEQGV
B2: RNF32 RING domain (UniProt Q9H0A6); chain SLLQGDSVQPCPICKEEFELRPQVLLSCSHVFHKACLQAFEKFTNKKTCPLCRKNQYQTRVIH
B3: RNF43 RING domain (UniProt Q68DV7); chain SGSSCSSAPVCAICLEEFSEGQELRVISCLHEFHRNCVDPWLHQHRTCPLCMFNITEGDSFS
B4: RNF175 RING domain (UniProt Q8N4F7); chain LPTRSLSDNICAVCGQKIIVELDEEGLIENTYQLSCNHVFHEFCIRGWCIVGKKQTCPYCKEKVDLKRMIS
B5: NSMCE1 RING domain (UniProt Q8WV22); chain RETYPDAVKICNICHSLLIQGQSCETCGIRMHLPCVAKYFQSNAEPRCPHCNDYWPHEIPKV
Residues (chain): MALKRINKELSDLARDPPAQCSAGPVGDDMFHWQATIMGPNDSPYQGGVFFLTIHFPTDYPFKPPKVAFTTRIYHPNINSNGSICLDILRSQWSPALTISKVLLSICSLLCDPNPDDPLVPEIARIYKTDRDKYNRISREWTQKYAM
| Molecule | lacZ reporter activity |
| --- | --- |
| MANWVFCNRCFQPPHRTSCFSLTNCGHVYCDACLGKGKKNECLICKAPCRTVLLSK (RNF212 RING domain (UniProt Q495C1)) | 0 |
| B1 (TRIM3 RING domain) | 0 |
| B2 (RNF32 RING domain) | 0 |
| ISNDSETLEECMVCSDMKRDTLFGPCGHIATCSLCSPRVKKCLICKEQVQSRTKIE (MIB1 RING domain (UniProt Q86YT6)) | 0 |
| B3 (RNF43 RING domain) | 7640 |
| B4 (RNF175 RING domain) | 0 |
| QLQDEEDDSLCRICMDAVIDCVLLECGHMVTCTKCGKRMSECPICRQYVVRAVHVF (RNF34 RING domain (UniProt Q969K3)) | 0 |
| B5 (NSMCE1 RING domain) | 0 |

Repeated from above (series 2):
| Modification | mean fluorescence intensity |
| --- | --- |
| 2'F-ANA at 1 2 4 5 6 7 10 11 12 13 14 | 157 a.u. |
| 2'F-ANA at 4 5 6 8 10 12 13 | 59.9 a.u. |
| 2'F-ANA at 3 5 11 12 13 14 15 | 60.5 a.u. |
